# Published values gathered from unrelated publications.
# Every numbered part comes from another study and shows a few of its results, in no order. Values joined by “and” are separate records of one study, mostly repeats; a detail may differ.
# UniProt P62344, sequence (whole entry, looked up): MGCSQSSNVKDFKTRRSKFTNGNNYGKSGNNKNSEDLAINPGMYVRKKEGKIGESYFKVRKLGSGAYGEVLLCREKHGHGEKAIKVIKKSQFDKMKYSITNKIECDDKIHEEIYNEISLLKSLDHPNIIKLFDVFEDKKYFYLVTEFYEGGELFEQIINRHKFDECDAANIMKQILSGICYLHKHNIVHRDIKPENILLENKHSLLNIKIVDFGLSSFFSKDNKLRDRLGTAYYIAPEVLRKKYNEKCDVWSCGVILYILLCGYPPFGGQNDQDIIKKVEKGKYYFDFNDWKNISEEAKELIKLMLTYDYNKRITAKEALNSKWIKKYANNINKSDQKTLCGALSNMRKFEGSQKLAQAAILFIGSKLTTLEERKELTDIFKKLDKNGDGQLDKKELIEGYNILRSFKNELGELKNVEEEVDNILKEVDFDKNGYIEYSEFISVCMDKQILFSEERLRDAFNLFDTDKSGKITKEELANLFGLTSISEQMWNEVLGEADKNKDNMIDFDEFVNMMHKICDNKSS
# UniProt P78362, sequence (whole entry, looked up): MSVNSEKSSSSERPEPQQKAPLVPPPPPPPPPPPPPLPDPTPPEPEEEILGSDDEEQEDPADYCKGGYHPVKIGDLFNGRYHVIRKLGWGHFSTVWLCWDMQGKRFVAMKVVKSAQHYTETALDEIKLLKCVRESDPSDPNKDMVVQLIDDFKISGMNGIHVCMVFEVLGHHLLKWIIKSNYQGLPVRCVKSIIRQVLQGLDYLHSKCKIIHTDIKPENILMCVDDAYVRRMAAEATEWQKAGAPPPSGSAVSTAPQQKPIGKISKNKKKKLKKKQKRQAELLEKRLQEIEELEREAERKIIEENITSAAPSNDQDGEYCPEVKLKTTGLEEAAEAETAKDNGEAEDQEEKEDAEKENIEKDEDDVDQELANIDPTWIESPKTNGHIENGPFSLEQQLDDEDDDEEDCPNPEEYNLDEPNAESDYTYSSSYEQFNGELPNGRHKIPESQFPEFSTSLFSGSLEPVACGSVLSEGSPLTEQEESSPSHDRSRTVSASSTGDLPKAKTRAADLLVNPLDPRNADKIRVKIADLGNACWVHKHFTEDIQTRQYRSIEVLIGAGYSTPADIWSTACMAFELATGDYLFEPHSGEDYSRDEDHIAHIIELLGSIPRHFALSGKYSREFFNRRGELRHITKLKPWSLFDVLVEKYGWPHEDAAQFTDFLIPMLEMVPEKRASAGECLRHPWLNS
# UniProt P19784, sequence (whole entry, looked up): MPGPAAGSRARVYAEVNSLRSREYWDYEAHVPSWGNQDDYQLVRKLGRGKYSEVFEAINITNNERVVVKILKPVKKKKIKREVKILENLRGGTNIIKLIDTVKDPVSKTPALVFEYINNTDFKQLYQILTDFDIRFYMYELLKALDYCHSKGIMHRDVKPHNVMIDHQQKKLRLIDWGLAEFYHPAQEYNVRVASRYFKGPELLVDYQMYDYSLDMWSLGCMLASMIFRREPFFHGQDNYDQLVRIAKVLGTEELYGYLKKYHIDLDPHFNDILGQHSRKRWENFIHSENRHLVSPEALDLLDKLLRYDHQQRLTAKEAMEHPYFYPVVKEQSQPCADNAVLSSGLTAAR
# UniProt P49761, sequence (whole entry, looked up): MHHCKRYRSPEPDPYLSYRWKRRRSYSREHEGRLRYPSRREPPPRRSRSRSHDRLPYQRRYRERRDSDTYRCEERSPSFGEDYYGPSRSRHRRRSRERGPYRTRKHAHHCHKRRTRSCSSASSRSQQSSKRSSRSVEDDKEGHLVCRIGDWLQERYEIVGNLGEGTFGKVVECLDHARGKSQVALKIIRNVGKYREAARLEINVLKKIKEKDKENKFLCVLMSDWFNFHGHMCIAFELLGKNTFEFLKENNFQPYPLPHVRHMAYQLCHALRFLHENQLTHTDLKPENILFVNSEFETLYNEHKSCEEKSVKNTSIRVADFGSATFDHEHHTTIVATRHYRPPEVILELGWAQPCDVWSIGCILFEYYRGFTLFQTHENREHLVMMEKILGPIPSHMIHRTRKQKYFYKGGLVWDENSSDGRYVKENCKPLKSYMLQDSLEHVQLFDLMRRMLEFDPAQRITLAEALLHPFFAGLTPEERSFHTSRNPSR

# Series 1
# Target: Cyclin-dependent kinase 12, with cyclin K (CDK12, Homo sapiens, UniProt Q9NYV4)
# UniProt Q9NYV4, sequence (whole entry, looked up): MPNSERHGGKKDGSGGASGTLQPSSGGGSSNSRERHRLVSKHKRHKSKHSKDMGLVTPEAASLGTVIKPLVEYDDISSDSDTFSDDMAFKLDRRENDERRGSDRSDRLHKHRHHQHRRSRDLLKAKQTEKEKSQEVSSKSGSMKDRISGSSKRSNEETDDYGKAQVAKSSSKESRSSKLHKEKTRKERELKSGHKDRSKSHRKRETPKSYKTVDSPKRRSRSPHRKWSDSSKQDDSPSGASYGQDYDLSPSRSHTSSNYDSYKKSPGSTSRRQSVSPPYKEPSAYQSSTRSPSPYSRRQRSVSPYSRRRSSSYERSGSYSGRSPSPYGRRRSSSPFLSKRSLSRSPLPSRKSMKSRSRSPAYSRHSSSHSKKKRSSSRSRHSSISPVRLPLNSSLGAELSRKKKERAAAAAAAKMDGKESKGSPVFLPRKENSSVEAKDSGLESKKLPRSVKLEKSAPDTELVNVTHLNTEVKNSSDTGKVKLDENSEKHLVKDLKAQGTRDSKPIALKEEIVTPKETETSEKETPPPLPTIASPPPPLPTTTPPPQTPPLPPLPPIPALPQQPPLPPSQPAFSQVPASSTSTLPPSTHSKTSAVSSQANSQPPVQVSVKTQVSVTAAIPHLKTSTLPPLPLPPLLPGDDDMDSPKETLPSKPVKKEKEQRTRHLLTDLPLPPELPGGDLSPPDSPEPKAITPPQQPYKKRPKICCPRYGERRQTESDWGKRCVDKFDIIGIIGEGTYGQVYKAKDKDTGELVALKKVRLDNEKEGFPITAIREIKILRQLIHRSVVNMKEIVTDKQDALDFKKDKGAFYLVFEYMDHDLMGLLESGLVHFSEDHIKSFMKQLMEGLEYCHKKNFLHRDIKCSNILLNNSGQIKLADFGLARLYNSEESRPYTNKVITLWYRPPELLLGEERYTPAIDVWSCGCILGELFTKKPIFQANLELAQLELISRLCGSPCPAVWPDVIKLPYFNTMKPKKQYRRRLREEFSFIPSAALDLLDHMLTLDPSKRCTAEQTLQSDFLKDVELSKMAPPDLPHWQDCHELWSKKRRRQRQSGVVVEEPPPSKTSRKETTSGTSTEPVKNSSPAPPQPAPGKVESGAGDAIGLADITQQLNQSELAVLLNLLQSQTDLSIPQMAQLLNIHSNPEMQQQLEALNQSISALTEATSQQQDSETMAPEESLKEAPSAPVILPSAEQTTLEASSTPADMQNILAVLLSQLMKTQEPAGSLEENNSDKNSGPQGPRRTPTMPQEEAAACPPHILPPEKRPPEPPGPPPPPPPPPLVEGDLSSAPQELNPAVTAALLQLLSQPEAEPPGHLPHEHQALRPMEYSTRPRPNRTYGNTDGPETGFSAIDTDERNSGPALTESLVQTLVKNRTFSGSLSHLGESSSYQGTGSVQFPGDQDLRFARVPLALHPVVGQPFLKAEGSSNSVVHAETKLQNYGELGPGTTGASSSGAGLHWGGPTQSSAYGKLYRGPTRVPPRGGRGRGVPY
# Read-out: kinase activity
# Action: inhibitor
# Technique: ADP-Glo
# Tested at: 0.2222 µM
Compound,inhibition [%]
CCn1cnc2c(NCc3nc4cc(Cl)c(Cl)cc4[nH]3)nc(N3CCN(S(C)(=O)=O)CC3)nc21,60.2
CCn1cnc2c(NCc3nc4cc(Cl)c(Cl)cc4[nH]3)nc(N3CCN(C(=O)c4ccncc4)CC3)nc21,74.2
CC(=O)N1CCN(c2nc(NCc3nc4cc(Cl)c(Cl)cc4[nH]3)c3ncn(C(C)C)c3n2)CC1,-1.8
CC(=O)N1CCN(c2nc(NCc3nc4cc(Cl)c(Cl)cc4[nH]3)c3ncn(C)c3n2)CC1,24.8
Cn1cc(-n2cnc3c(NCc4nc5cc(Cl)c(Cl)cc5[nH]4)nc(N4CCNCC4)nc32)cn1,24.8
CCn1cnc2c(NCc3nc4cc(Cl)c(Cl)cc4[nH]3)nc(N3CCN(C(=O)c4cccnc4)CC3)nc21,61.8
CCn1cnc2c(NCc3nc4cc(Cl)c(Cl)cc4[nH]3)nc(N3CCN(C(=O)CNC(C)=O)CC3)nc21,70.3
CCn1cnc2c(NCc3nc4cc(Cl)c(Cl)cc4[nH]3)nc(N3CCN(C(=O)c4ccccc4)CC3)nc21,70.7
CCn1cnc2c(NCc3nc4cc(Cl)c(Cl)cc4[nH]3)nc(N3CCC(NC(C)=O)CC3)nc21,52.8
CCn1cnc2c(NCc3nc4cc(Cl)c(Cl)cc4[nH]3)nc(N3CCN(C(=O)c4ccccn4)CC3)nc21,56.4

# Series 2
# Compound: C[C@@H]1CN(c2ccc(-c3cc(C(=O)NCCOCCOCCOCCOCCNC(=O)Cn4cc(-c5[nH]cc(C(=O)N[C@@H](CC(N)=O)c6ccc(F)c(Cl)c6)c5-c5ccc(Cl)cc5F)cn4)ccc3F)cc2NC(=O)c2c[nH]c(=O)cc2C(F)(F)F)C[C@H](C)N1C
# Read-out: thermal unfolding
# Technique: differential scanning fluorimetry
# Tested at: 5.5 µM
# Direction: higher = more unfolded
# DCAF1: DDB1- and CUL4-associated factor 1 (DCAF1, Homo sapiens, UniProt Q9Y4B6)
# UniProt Q9Y4B6, sequence (whole entry, looked up): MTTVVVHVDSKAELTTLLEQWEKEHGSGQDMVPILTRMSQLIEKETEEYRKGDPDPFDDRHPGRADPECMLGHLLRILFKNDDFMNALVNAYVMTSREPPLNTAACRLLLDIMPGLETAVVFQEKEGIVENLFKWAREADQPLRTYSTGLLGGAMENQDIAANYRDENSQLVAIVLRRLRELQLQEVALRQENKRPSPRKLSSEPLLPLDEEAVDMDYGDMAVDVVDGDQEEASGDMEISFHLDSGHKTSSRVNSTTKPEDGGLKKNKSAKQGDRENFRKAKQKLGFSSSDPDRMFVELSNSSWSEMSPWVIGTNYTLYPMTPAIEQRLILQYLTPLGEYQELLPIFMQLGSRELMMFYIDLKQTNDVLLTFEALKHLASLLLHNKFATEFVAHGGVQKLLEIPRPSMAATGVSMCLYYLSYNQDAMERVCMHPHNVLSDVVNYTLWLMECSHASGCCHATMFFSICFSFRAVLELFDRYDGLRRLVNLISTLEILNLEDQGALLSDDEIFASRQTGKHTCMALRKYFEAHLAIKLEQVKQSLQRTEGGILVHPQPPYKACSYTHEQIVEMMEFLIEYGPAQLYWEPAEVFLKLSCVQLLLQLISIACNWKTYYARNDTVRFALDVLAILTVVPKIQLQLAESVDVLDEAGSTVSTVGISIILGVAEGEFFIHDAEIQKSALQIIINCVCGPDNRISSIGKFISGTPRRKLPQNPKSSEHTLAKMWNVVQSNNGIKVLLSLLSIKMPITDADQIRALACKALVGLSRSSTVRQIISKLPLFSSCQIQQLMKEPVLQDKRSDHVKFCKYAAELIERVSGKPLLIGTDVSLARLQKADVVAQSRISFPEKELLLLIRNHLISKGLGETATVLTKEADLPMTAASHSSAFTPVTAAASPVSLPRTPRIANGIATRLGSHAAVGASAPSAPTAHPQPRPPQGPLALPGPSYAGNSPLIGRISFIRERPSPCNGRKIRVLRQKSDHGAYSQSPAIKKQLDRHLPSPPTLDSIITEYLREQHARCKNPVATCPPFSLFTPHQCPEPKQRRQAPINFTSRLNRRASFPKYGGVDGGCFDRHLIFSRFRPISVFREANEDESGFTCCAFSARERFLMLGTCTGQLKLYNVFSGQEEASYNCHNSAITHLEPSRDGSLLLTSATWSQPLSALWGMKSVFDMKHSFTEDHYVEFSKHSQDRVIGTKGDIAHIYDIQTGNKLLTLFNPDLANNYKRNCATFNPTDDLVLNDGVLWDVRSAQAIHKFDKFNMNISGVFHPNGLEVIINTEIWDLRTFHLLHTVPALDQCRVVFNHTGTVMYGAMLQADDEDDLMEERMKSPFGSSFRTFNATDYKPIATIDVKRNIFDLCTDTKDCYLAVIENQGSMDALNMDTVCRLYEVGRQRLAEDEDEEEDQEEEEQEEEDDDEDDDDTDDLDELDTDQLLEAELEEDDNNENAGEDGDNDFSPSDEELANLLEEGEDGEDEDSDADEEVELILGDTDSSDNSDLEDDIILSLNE
# WDR5: WD repeat-containing protein 5 (WDR5, Homo sapiens, UniProt P61964)
target,temperature,SYPRO Orange fluorescence [a.u.]
DCAF1,79.61 °C,44600
DCAF1,90.21 °C,34900
DCAF1,55.41 °C,20300
DCAF1,41.2 °C,10900
DCAF1,92.41 °C,32800
WDR5,77.61 °C,16200
WDR5,39.8 °C,14300
DCAF1,62.41 °C,49400
WDR5,43.6 °C,14400
WDR5,50.2 °C,14500
WDR5,34.4 °C,14300

# Series 3
# Structure (SMILES): CN1CCC[C@H]1COc1nc2c(c(N3CCN(C(=O)C4CC4)[C@@H](CC#N)C3)n1)CCN(c1cccc3cccc(Cl)c13)C2
# Read-out: binding
# Action: competitor
# Technique: NanoBRET
# Cells: HEK293
# KRAS Q61H: GTPase KRas (KRAS, Homo sapiens, UniProt P01116, Q61H)
# KRAS G13D: GTPase KRas (KRAS, Homo sapiens, UniProt P01116, G13D)
# KRAS G12D: GTPase KRas (KRAS, Homo sapiens, UniProt P01116, G12D)
target,tested at,normalized BRET
KRAS Q61H,412 nM,92.7% and 84.1% and 86.2%
KRAS G13D,45.7 nM,99.8% and 97.8% and 85.2%
"GTPase KRas (KRAS, Homo sapiens, UniProt P01116, Q61L)",33.3 µM,26.6% and 20.1% and 27.9%
KRAS G13D,412 nM,80.8% and 80% and 89.7%
KRAS Q61H,45.7 nM,95.2% and 96% and 106%
KRAS G13D,5.08 nM,93.2% and 102% and 88.8%
KRAS G12D,1.69 nM,98.5% and 108%
"GTPase KRas (KRAS, Homo sapiens, UniProt P01116, Q61R)",137 nM,97.3% and 90% and 98.8%
KRAS G12D,137 nM,103% and 104% and 97.2%

# Series 4
# SMILES: CC[C@@]1(c2cccc(-c3c(F)cncc3OC)c2)C2=C(Nc3n[nH]cc31)[C@H](F)C(C)(C)CC2=O (single isomer, unassigned)
# Tested at: 1 µM
target,read-out,technique,reference,remaining binding [%]
"CSNK2A2 (Homo sapiens, UniProt P19784)",kinase binding,KINOMEscan,DMSO control,79
"SRPK2 (Homo sapiens, UniProt P78362)",kinase binding,KINOMEscan,DMSO control,87
"CDPK1 (Plasmodium falciparum, UniProt P62344)",kinase binding,KINOMEscan,DMSO control,61
"Aurora kinase B (AURKB, Homo sapiens, UniProt Q96GD4)",binding,competition with immobilised ligand,,62
"CLK3 (Homo sapiens, UniProt P49761)",kinase binding,KINOMEscan,DMSO control,73
"CAMK2A (Homo sapiens, UniProt Q9UQM7)",binding,competition with immobilised ligand,,82
"MST1R (Homo sapiens, UniProt Q04912)",binding,competition with immobilised ligand,,99
"MERTK (Homo sapiens, UniProt Q12866)",binding,competition with immobilised ligand,,88
"FGFR3 (Homo sapiens, UniProt P22607)",kinase binding,KINOMEscan,DMSO control,100
"PAK6 (Homo sapiens, UniProt Q9NQU5)",binding,competition with immobilised ligand,,99
"AKT3 (Homo sapiens, UniProt Q9Y243)",kinase binding,KINOMEscan,DMSO control,99
"MKNK1 (Homo sapiens, UniProt Q9BUB5)",binding,competition with immobilised ligand,,65
"Insulin receptor (INSR, Homo sapiens, UniProt P06213)",kinase binding,KINOMEscan,DMSO control,80
"EPHA8 (Homo sapiens, UniProt P29322)",kinase binding,KINOMEscan,DMSO control,78
"MYLK (Homo sapiens, UniProt Q15746)",kinase binding,KINOMEscan,DMSO control,92
"CDKL3 (Homo sapiens, UniProt Q8IVW4)",kinase binding,KINOMEscan,DMSO control,100

# Some of these lines once more (series 4):
target,read-out,technique,reference,remaining binding [%]
"MERTK (Homo sapiens, UniProt Q12866)",binding,competition with immobilised ligand,,88
"FGFR3 (Homo sapiens, UniProt P22607)",kinase binding,KINOMEscan,DMSO control,100
"PAK6 (Homo sapiens, UniProt Q9NQU5)",binding,competition with immobilised ligand,,99
"AKT3 (Homo sapiens, UniProt Q9Y243)",kinase binding,KINOMEscan,DMSO control,99
"MKNK1 (Homo sapiens, UniProt Q9BUB5)",binding,competition with immobilised ligand,,65
"Insulin receptor (INSR, Homo sapiens, UniProt P06213)",kinase binding,KINOMEscan,DMSO control,80
"EPHA8 (Homo sapiens, UniProt P29322)",kinase binding,KINOMEscan,DMSO control,78
